Measurements collected from several papers.
Parts stem from different laboratories: compare values within a part only. Substitutions count along the parent as printed.

Series 1 — target: UBE2D4 UBC core domain (UniProt Q9Y2X8); method: yeast two-hybrid; sample: yeast; setting: mostly zero background; relative to: not given; direction: higher = stronger interaction
B1: TRIM28 RING domain (UniProt Q13263); chain GAEALELLEHCGVCRERLRPEREPRLLPCLHSACSACLGPAAPAAANSSGDGGAAGDGTVVDCPVCKQQCFSKDIVE
B2: RNF7 RING domain (UniProt Q9UBF6); chain AICRVQVMDACLRCQAENKQEDCVVVWGECNHSFHNCCMSLWVKQNNRCPLCQQDWVVQRIGK
B3: SHPRH RING domain (UniProt Q149N8); chain KTSGGVNPEPCPICARQLGKQWAVLTCGHCFCNECISIIIEQYSVGSHRSSIKCAICRQTTSHKEISY
Residues (chain): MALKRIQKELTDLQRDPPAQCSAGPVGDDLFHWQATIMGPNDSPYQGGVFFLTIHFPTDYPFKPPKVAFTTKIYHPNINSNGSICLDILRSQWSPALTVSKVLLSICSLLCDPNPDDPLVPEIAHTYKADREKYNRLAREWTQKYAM
Molecule | lacZ reporter activity
B1 (TRIM28 RING domain) | 0
B2 (RNF7 RING domain) | 0
B3 (SHPRH RING domain) | 0

Series 2 — target: CCNE2, cyclin fold, Cln2 fusion (human); method: yeast growth competition, sequencing; sample: yeast; setting: strong parent motif; relative to: not given; direction: higher = stronger binding
Starting sequence: viral docking peptide; KGVKRKLFAEDSS; partner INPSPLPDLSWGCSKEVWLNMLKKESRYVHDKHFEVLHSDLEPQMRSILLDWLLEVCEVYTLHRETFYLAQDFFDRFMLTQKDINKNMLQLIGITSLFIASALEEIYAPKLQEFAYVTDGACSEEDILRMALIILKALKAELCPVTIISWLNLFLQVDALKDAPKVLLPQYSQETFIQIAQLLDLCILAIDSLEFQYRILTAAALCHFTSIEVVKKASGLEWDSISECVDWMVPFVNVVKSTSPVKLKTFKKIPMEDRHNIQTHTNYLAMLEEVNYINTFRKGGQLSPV
Substitution | normalised enrichment score
D11P | 6.9
R5S | 0.44
D11N | 6.14
L7C | 0.461
D11S | 6.61
R5Y | -0.0582
V3L | 1.27
E10W | 3.66
L7G | 0.63
E10K | 3.81
A9H | 6.37
K6F | 1.81
V3F | 5.38
S12H | 6.47
F8V | 0.412
R5A L7A | 0.279
R5G | -0.158

Series 3 — Substitution: F66A; method: DHFR PCA, deep sequencing; sample: yeast; relative to: wild-type fitted maximum; direction: higher = stronger binding
Target: ABI1, truncated, D143A, DHFR fusion (Arabidopsis thaliana)
Setting: methotrexate growth selection, single substitutions
Starting sequence: PYL1, truncated, DHFR fusion (Arabidopsis thaliana); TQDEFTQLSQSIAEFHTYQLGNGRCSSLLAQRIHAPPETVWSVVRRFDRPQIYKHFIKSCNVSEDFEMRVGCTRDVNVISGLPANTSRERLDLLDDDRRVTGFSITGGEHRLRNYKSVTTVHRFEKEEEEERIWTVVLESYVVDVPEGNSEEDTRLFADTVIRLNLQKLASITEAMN; partner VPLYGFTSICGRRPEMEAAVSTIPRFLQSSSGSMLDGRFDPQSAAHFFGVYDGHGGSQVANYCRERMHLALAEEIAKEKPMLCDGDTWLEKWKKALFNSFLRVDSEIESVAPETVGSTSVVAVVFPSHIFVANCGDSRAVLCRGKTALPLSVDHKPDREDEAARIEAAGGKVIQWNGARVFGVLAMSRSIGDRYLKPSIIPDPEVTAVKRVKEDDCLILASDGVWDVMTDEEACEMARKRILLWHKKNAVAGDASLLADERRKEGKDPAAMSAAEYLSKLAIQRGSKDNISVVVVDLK
setting | relative binding score
added: (+)-ABA 0.39 µM | 17.8%
added: (+)-ABA 0.0091 µM | 4.19%
added: (+)-ABA 0.11 µM | 10.3%
added: (+)-ABA 200 µM | 101%
added: (+)-ABA 4.8 µM | 59.2%
added: (+)-ABA 0 µM | 0.814%

Series 4 — method: protein-binding microarray; form: double-stranded DNA, one strand shown; sample: in vitro; tested at: 0.8 µM; setting: whole 60-bp probe, no competitor; direction: higher = stronger binding; shared flanks, not repeated: … GTCTTGATTCGCTTGACGCTGCTG
Target: Centromere-binding protein 1, full length, N-terminal tag (CBF1, Saccharomyces cerevisiae, UniProt P17106, residues 1-351)
Sequence of UniProt P17106 (whole entry, looked up): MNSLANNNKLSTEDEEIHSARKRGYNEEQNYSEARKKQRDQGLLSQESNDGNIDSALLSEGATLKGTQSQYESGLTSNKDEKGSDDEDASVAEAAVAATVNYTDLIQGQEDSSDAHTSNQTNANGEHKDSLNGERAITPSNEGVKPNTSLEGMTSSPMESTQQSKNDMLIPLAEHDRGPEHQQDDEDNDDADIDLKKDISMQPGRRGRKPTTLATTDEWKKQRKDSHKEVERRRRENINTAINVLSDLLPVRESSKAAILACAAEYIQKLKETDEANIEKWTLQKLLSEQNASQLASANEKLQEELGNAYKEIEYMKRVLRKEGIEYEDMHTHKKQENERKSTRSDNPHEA
Oligonucleotide | fluorescence intensity [a.u.]
GAAAGAAGAGGACATCATGTCTGCGGTTCCTGCTAG | 492
CTATTGCGCTTGCGGCACATGTAATGTAGTTTCTTC | 627
GAACTTCCATTAAGTCAGATGACTGTTTCTCAATAG | 2020
TGTACGAAGCTATGTGATCTTCATATAGTAGTTAGG | 540
CTAAAACTGCAGCATCATGATGTTCCTAGACGTTTC | 512
CTAGAGCAATTGCATCAGTTGGCCTTAGCTCAATTC | 458
CTACGCGTTATTCGTCATCAGGCAAGTAATTATTTC | 585
CTACTATGCACTGATGACGTCACTGTCAATCGCTTC | 560

Series 5 — effect on: peptide-MHC binding; form: peptide; tested at: concentration not given
Target: HLA class I histocompatibility antigen, A alpha chain, allele A*26:03 (Homo sapiens, UniProt P04439)
Molecule | binding
TESDAIRTL | inactive
IFDDLQGSL | inactive
YHRFGLYRL | inactive
RQADILRQF | inactive
LTFLDCLYY | inactive
